Measurements collected from several papers.
Compare with care: the assays were run in different laboratories. ± gives the spread as reported.

NC1(c2ccccc2Cl)CCCCC1=O (racemic) — Cmax (male Wistar rats, plasma; intraperitoneal, 40 mg/kg once daily for 14 days, day 14): 2050 ± 678 ng/mL
CCCC(=O)OCSc1ccccc1C(=O)NCCC(N)=O — Cmax (Sprague-Dawley rat, male, plasma; oral, 1000 mg/kg): 38.2 ± 50 ng/mL
CN1CC[C@@]23CCCC[C@@H]2[C@@H]1Cc1ccc(O)cc13 — Cmax (Wistar rat, both sexes, plasma; oral, 5 mg/kg DEM, DEM 2 h after pretreatment, added: QN 2.5 mg/kg single pretreatment): 22.1 ± 6.01 ng/mL
CNC(=O)c1ccc(-c2cnn3ccc(C(=O)N(C)c4ccc(Cl)c(C(=O)OC)c4)cc23)cc1 — Cmax (Wistar rat, both sexes, plasma; oral, 50 mg/kg/day, day 14): 1.02 ng/mL
COc1ccc2c(c1)[C@]13CCCC[C@@H]1[C@H](C2)N(C)CC3 — Cmax (measured: HHMA; rat, plasma; intraperitoneal, 30 mg/kg, three doses, added: MDMA 20 mg/kg oral; baseline: MDMA with saline): decreased
Cc1cccc(C)c1OCC(=O)N[C@@H](Cc1ccccc1)[C@@H](O)C[C@H](Cc1ccccc1)NC(=O)[C@H](C(C)C)N1CCCNC1=O — Cmax (male Sprague-Dawley rats, plasma; oral, 160 mg/kg, added: QPD 6 g/kg oral, 30 min before): 1190 ng/mL
CCCCCCCCCC(=O)N[C@@H](Cc1c[nH]c2ccccc12)C(=O)N[C@H](CC(N)=O)C(=O)N[C@@H](CC(=O)O)C(=O)N[C@@H]1C(=O)NCC(=O)N[C@@H](CCCN)C(=O)N[C@@H](CC(=O)O)C(=O)N[C@H](C)C(=O)N[C@@H](CC(=O)O)C(=O)NCC(=O)N[C@H](CO)C(=O)N[C@@H]([C@H](C)CC(=O)O)C(=O)N[C@@H](CC(=O)c2ccccc2N)C(=O)O[C@@H]1C — Cmax (HPLC-UV; male Wistar rat, skin tissue of head; subcutaneous, 50 mg/kg, single dose): 20100 ± 2200 ng/mL
C[C@H]1CNCCc2ccc(Cl)cc21 — Cmax (male Sprague-Dawley rat, plasma; subcutaneous, pimavanserin 1 + lorcaserin 1 mg/kg, pimavanserin 15 min earlier): 26.6 ± 1.69 ng/mL

A few entries again:
COc1ccc2c(c1)[C@]13CCCC[C@@H]1[C@H](C2)N(C)CC3 — Cmax (measured: HHMA; rat, plasma; intraperitoneal, 30 mg/kg, three doses, added: MDMA 20 mg/kg oral; baseline: MDMA with saline): decreased
